# Published values collected from several papers.
# A part holds a random share of what one study measured. Positions count from the first letter of the parent shown.

# Sample 1
# Target: Sal-like protein 4, full length isoform A (SALL4, Homo sapiens, UniProt Q9UJQ4, residues 1-1053)
# Chain of UniProt Q9UJQ4 (whole entry, looked up): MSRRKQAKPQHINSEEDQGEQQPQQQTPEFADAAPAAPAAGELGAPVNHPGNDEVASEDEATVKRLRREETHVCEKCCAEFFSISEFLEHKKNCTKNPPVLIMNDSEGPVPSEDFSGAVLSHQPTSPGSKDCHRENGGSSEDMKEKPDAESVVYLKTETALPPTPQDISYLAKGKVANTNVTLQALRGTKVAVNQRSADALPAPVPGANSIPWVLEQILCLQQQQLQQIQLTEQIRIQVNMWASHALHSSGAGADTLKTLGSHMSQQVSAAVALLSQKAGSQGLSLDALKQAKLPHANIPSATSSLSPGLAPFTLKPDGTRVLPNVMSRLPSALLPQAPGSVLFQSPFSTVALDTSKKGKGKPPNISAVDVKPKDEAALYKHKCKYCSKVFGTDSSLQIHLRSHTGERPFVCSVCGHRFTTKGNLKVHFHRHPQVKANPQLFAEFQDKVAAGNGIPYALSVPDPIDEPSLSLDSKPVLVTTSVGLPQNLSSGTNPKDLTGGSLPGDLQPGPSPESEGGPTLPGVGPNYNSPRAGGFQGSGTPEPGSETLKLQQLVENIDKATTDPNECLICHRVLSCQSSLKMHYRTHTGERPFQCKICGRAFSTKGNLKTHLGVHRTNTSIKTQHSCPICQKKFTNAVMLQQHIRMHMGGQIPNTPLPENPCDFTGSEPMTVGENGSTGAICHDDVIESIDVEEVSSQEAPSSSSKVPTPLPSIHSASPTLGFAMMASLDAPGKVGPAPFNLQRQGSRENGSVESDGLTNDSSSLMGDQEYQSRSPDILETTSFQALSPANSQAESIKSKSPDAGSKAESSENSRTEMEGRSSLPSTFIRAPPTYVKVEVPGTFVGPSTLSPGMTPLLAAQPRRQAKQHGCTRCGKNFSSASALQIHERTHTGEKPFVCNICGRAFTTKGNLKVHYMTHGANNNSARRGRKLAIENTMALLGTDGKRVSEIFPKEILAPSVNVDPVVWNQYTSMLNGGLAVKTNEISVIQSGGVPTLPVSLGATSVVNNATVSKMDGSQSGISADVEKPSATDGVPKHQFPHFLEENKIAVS
# Method: universal PBM
# Molecule type: double-stranded DNA, one strand shown
# Sample: in vitro
# Tested at: 600 nM
# Setting: 8-mer, flanks averaged, mean of replicates
# Direction: higher = stronger binding
Oligonucleotide,E-score
GCAGCTTA,-0.0826
ACCTGAGG,-0.294
CCACGAAC,0.044
AAGCTGCT,-0.123
CATGATCC,-0.0281
ACCATTCA,0.0529
CGTGGAAA,0.158
CCCTAACC,-0.277

# Sample 2
# Target: Interferon regulatory factor 7, full length, phosphomimetic (IRF7, Homo sapiens, UniProt Q92985, residues 1-503, S101K/S471D/S472D/S475D/S476D/S477D/S483D/S484D/S487D)
# Method: protein-binding microarray
# Molecule type: double-stranded DNA, one strand shown
# Sample: in vitro
# Tested at: 250 nM
# Setting: 60-bp whole probe
# With: salmon DNA 0.4 mg/ml
# Reference: random background probes
# Direction: higher = stronger binding
# Shared flanks, not repeated: GCCTAGCAC … GTCTTGATTCGCTTGACGCTGCTG
# Construct (chain): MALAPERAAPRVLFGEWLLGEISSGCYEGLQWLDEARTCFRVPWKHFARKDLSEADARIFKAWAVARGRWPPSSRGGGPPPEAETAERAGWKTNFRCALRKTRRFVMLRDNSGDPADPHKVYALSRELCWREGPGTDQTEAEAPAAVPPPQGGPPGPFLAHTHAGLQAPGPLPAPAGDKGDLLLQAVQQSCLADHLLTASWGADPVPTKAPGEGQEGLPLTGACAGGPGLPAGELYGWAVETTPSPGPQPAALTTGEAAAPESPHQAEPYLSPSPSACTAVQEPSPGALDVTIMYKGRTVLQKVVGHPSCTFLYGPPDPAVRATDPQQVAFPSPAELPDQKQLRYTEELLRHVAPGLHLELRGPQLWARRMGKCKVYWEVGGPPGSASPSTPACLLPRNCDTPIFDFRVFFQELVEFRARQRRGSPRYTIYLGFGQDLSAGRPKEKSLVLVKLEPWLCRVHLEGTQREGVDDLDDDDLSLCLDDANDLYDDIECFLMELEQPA
Oligonucleotide,log fluorescence [z-score]
TCAATGGTCCTGGTTTCAACTGTGCTA,0.495
TCATGACTCTGCCTCTAACTGTGCTAG,-0.182
TCACATTTACATTTTAGACTGTGCTAG,0.944
TCAACTCAGCACTTTGGCACTGTGCTA,-0.869
GTAGATCTCAGTATCGATTAGTGCTAG,0.545
GACGGTTTCGGTCTCGGGACGTGCTAG,7.89
GACGGACTTCTTTTCCTGACGTGCTAG,0.381
GACGGTCACCTACTGCTGACGTGCTAG,-0.635

# Sample 3
# Target: UBE2D3 UBC core domain (UniProt P61077)
# Method: yeast two-hybrid
# Sample: yeast
# Setting: mostly zero background
# Reference: not given
# Direction: higher = stronger interaction
# B1: TRIM52 RING domain (UniProt Q96A61); chain PMQTLQEEAVCAICLDYFKDPVSISCGHNFCRGCVTQLWSKEDEEDQNEEEDEWEEEEDEEAV
# B2: TRIM10 RING domain (UniProt Q9UDY6); chain SVTSLADEVNCPICQGTLREPVTIDCGHNFCRACLTRYCEIPGPDLEESPTCPLCKEPFRPGSFRP
# B3: TRIM3 RING domain (UniProt O75382); chain VQPMDKQFLVCSICLDRYQCPKVLPCLHTFCERCLQNYIPAQSLTLSCPVCRQTSILPEQGV
# B4: PEX2 RING domain (UniProt P28328); chain DNTLATSGKECALCGEWPTMPHTIGCEHIFCYFCAKSSFLFDVYFTCPKCGTEVHSLQPLK
# B5: RNF4 RING domain (UniProt P78317); chain TGLRPSGTVSCPICMDGYSEIVQNGRLIVSTECGHVFCSQCLRDSLKNANTCPTCRKKINHKRYHP
# B6: RNF175 RING domain (UniProt Q8N4F7); chain LPTRSLSDNICAVCGQKIIVELDEEGLIENTYQLSCNHVFHEFCIRGWCIVGKKQTCPYCKEKVDLKRMIS
# B7: TRIM15 RING domain (UniProt Q9C019); chain SLKVVHELPACTLCAGPLEDAVTIPCGHTFCRLCLPALSQMGAQSSGKILLCPLCQEEEQAETPMA
# B8: RNF150 RING domain (UniProt Q9ULK6); chain DKETESDFDNCAVCIEGYKPNDVVRILPCRHLFHKSCVDPWLLDHRTCPMCKMNILKALGIP
# B9: TRIM35 RING domain (UniProt Q9UPQ4); chain PSRSFKEELLCAVCYDPFRDAVTLRCGHNFCRGCVSRCWEVQVSPTCPVCKDRASPADLRT
# B10: NSMCE1 RING domain (UniProt Q8WV22); chain RETYPDAVKICNICHSLLIQGQSCETCGIRMHLPCVAKYFQSNAEPRCPHCNDYWPHEIPKV
# B11: MSL2 RING domain (UniProt Q9HCI7); chain LLPYFRQSLSCCVCGHLLQDPIAPTNSTCQHYVCKTCKGKKMMMKPSCSWCKDYEQFEENKQ
# B12: RNF14 RING domain (UniProt Q9UBS8); chain IKCFNSKLFLCSICFCEKLGSECMYFLECRHVYCKACLKDYFEIQIRDGQVQCLNCPEPKCPSVATPGQVK
# B13: TRIM38 RING domain (UniProt O00635); chain STKKMMEEATCSICLSLMTNPVSINCGHSYCHLCITDFFKNPSQKQLRQETFCCPQCRAPFHMDSLRP
# Construct (chain): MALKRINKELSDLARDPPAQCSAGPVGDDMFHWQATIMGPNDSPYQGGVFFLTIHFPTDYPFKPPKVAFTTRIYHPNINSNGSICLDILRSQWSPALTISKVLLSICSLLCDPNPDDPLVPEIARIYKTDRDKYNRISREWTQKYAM
Sequence,lacZ reporter activity
B1 (TRIM52 RING domain),0
B2 (TRIM10 RING domain),0
B3 (TRIM3 RING domain),0
MANWVFCNRCFQPPHRTSCFSLTNCGHVYCDACLGKGKKNECLICKAPCRTVLLSK (RNF212 RING domain (UniProt Q495C1)),0
QLQDEEDDSLCRICMDAVIDCVLLECGHMVTCTKCGKRMSECPICRQYVVRAVHVF (RNF34 RING domain (UniProt Q969K3)),0
B4 (PEX2 RING domain),0
B5 (RNF4 RING domain),3590
B6 (RNF175 RING domain),0
B7 (TRIM15 RING domain),0
B8 (RNF150 RING domain),15900
B9 (TRIM35 RING domain),0
B10 (NSMCE1 RING domain),0
FLKKLEQSFMCVCCQELVYQPVTTECFHNVCKDCLQRSFKAQVFSCPACRHDLGQNYIMI (UHRF2 RING domain (UniProt Q96PU4)),9300
B11 (MSL2 RING domain),0
B12 (RNF14 RING domain),0
B13 (TRIM38 RING domain),0

# Sample 4
# Target: CCNE1, cyclin fold, Cln2 fusion (human)
# Method: yeast growth competition, sequencing
# Sample: yeast
# Setting: strong parent motif
# Reference: not given
# Direction: higher = stronger binding
# Starting sequence: viral docking peptide; KGVKRKLFAEDSS
Change,normalised enrichment score
K6G,0.998
A9G,7.43
S12R,7.52
E10W,5.29
L7G,0.365

# Excerpt of the above (sample 3):
Sequence,lacZ reporter activity
B7 (TRIM15 RING domain),0
B8 (RNF150 RING domain),15900
B9 (TRIM35 RING domain),0
B10 (NSMCE1 RING domain),0
